Measurements gathered from unrelated publications.
Numbered parts are unrelated; each lists some results of a single study.

Set 1 — method: aptamer microarray, sandwich; molecule type: DNA with 2'F-ANA; medium: in vitro; tested at: 200 nM; together with: Cy3 exosite-II aptamer, 400 nM; direction: higher = stronger binding; endpoint: mean fluorescence intensity; sequence: GGTTGGTGTGGTTGG
Target: Prothrombin, mature alpha-thrombin (F2, Homo sapiens, UniProt P00734)
Setting: whole 15-mer aptamer, many near background
2'F-ANA at 1 7 12 13 14: 120 a.u.
2'F-ANA at 2 4 6 8 9 11 15: 229 a.u.
2'F-ANA at 1 3 5 9 10 11 12 13 15: 50.5 a.u.
2'F-ANA at 3 4 9 10 11 13 14: 201 a.u.
2'F-ANA at 2 5 6 9 14 15: 48 a.u.
2'F-ANA at 1 5 7 9 10 13 15: 74.1 a.u.
2'F-ANA at 3 5 7 8 11 15: 124 a.u.
2'F-ANA at 1 2 3 9 12 13 15: 351 a.u.
2'F-ANA at 1 2 4 6 7 13: 106 a.u.
2'F-ANA at 6 7 8 9 10 14 15: 117 a.u.
2'F-ANA at 2 4 5 9 12 14: 43.4 a.u.
2'F-ANA at 1 7 9 10 11 12 14 15: 49.2 a.u.
2'F-ANA at 5 7 8 10 12 15: 60.2 a.u.
2'F-ANA at 3 5 6 7 8 9 10 13 14: 50.7 a.u.
2'F-ANA at 1 4 5 6 7 8 9 11 12 14 15: 52 a.u.
2'F-ANA at 1 2 3 4 6 7 9 13 14 15: 57.3 a.u.

Set 2 — method: protein-binding microarray; molecule type: hairpin DNA; medium: in vitro; tested at: not given; relative to: not given; direction: higher = stronger binding; endpoint: median fluorescence
Target: Runt-related transcription factor 1, full length (RUNX1, Homo sapiens, UniProt Q01196-8, residues 1-480)
Setting: whole hairpin DNA, median over replicate spots
GAGGCCCAACAGCAACAGCCTCCTGGCTGTTGCTGTTGGGCCTCACACTC: 1720 a.u.
GAGGCCTCGTGTGGTTGGCCTCCTGGCCAACCACACGAGGCCTCACACTC (5mC at 8 36): 2080 a.u.
GAGGCCTGTCGCGGTTGGGCTCCTGCCCAACCGCGACAGGCCTCACACTC (5mC at 26): 2860 a.u.
GAGGCCTGTTGTGCGTGGCCTCCTGGCCACGCACAACAGGCCTCACACTC: 1800 a.u.
CTCAGCTCTGTGGGCTGGACTCCTGTCCAGCCCACAGAGCTGAGACACTC: 1910 a.u.
GAGGCCTGTTGTGGCGGGCCTCCTGGCCCGCCACAACAGGCCTCACACTC (5mC at 15 29): 1990 a.u.
CTCAGTTGTGTGGGCTGGACTCCTGTCCAGCCCACACAACTGAGACACTC (5mC at 37): 2040 a.u.
GAGGCCCAACCGCAAGAGCCTCCTGGCTCTTGCGGTTGGGCCTCACACTC: 7420 a.u.
GAGGCCCAACCGCACCAGCCTCCTGGCTGGTGCGGTTGGGCCTCACACTC (5mC at 15): 3300 a.u.
GAGGCCTGTTGCGGTTAGCCTCCTGGCTAACCGCAACAGGCCTCACACTC: 12100 a.u.

Set 3 — method: protein-binding microarray; molecule type: double-stranded DNA, one strand shown; medium: in vitro; tested at: 940 nM top; setting: 60-bp whole probe; together with: salmon DNA 0.4 mg/ml; relative to: random background probes; direction: higher = stronger binding; endpoint: fitted relative affinity; all sequences stand within: GCCTAGCAC … GTCTTGATTCGCTTGACGCTGCTG
Target: Interferon regulatory factor 5, full length, phosphomimetic (IRF5, Homo sapiens, UniProt Q13568-2, residues 1-514, S451D/S453D/S456D/S462D)
TTAGGTATCTGGTATCGGTTAGTGCTA: 5.31 z-score
TGCCTTTTGCTTTACTGATGGTGCTAG: 0.557 z-score
TTAGTTATCGGGTATCGATTAGTGCTA: 3.39 z-score
TTACGTATCGGGTTTCGGTTAGTGCTA: 8.2 z-score
TCATCTTCAGCACTCGGACTGTGCTAG: 0.265 z-score
TAGGGACTCGGGTCTCCCTTGGTGCTA: -0.536 z-score
GGCGATTTCGGGTTTCGAGACGTGCTA: 2.52 z-score
TTAGCTTTCCTTTCCCTTTAGTGCTAG: 1.22 z-score
GGTGGTCTGGGACCCTCCCCGTGCTAG: -0.424 z-score
GACGGCATCGGTCTCGGGACGTGCTAG: 0.285 z-score
TCTTTTATGGTATTTTTTTGGTGCTAG: 1.91 z-score
GACGAACTGGGGTATCGACACGTGCTA: 0.757 z-score
GACGGTCTCGGTATCTGGACGTGCTAG: 3.59 z-score
GACGGTCTCCTAGTGCTGACGTGCTAG: -0.556 z-score
AAGGTATTATTTATTGTAGCGTGCTAG: -0.309 z-score
TTATGTTCCCTTTTCCTTTAGTGCTAG: 1.91 z-score
GACGATACCAGACTGGAGACGTGCTAG: 1.15 z-score
CTTGCTCTGTGCATAGGTCTGTGCTAG: -0.528 z-score

Set 4 — method: protein binding microarray; molecule type: double-stranded DNA, one strand shown; medium: in vitro; tested at: not given; relative to: not given; direction: higher = stronger binding; endpoint: E-score
Target: Histone acetyltransferase KAT6A, winged helix 2, GST fusion (KAT6A, Homo sapiens, UniProt Q92794, residues 85-181)
Setting: 8-mer, flanks averaged, mean of 2 arrays, mostly near background
Residues (chain): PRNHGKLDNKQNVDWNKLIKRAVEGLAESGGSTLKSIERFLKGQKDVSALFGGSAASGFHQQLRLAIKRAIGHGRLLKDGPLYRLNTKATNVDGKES
CACGCCGG: 0.201
TTCCTCAA: -0.0364
ATAACGAG: 0.0314
AACAAAAA: 0.133
AAGGCCCT: 0.0885
AGCCAGGA: 0.00048
AAGGAATG: 0.0151
AATTGTAT: 0.148
CACGACAG: 0.0183
AAGAGGGC: 0.0276
TCTTCGCA: -0.0161
ACCCTTGG: -0.152
CAGGGGAC: 0.123
ACTCATAT: -0.146
ATCGAGAA: -0.000945
TGCAAACA: -0.0791
ATCTCCAG: 0.0501
GGGCCTGA: -0.00626
CGATTACA: 0.0761
ATCCGACC: 0.0712
ACATACCT: -0.132
AGTAGCCG: 0.101
TATGGCCA: -0.223
CTTGGAAA: 0.0557
GCTTACGA: -0.0613

Set 5 — method: universal PBM; molecule type: double-stranded DNA, one strand shown; medium: in vitro; tested at: not given; direction: higher = stronger binding; endpoint: E-score
Target: Sal-like protein 4, full length isoform B (SALL4, Homo sapiens, UniProt Q9UJQ4-2, residues 1-616)
Setting: 8-mer, flanks averaged, mean of replicates
Residues (chain): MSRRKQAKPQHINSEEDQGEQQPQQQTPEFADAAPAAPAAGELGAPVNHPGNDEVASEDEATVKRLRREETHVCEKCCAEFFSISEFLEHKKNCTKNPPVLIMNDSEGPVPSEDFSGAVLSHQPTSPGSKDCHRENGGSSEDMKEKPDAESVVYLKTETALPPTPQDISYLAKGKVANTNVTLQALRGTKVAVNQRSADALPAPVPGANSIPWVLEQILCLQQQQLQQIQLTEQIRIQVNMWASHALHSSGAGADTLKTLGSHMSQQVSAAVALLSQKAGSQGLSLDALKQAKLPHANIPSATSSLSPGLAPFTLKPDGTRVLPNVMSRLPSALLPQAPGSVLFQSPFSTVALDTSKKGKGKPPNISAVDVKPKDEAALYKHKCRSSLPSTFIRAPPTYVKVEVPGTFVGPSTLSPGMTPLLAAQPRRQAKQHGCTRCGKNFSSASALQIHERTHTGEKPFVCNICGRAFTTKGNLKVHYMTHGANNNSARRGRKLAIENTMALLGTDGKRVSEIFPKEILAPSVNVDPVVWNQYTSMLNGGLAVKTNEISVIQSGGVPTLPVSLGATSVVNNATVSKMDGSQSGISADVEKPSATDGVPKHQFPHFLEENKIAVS
CGTTTCTA: 0.0733
ACTGGCTC: -0.229
AGTGGGTC: -0.285
CGATGGCC: -0.0219
AGGCGCGC: -0.163
CTGATGAC: -0.131
TAAGGCAA: 0.0676
TCAAGGGA: -0.0879
CGGGCCCA: -0.282
AGGATCTG: -0.225
AGATGCCT: 0.0329
AGATAGTA: 0.167
CGGAGCGA: -0.172
GGGAGAAC: -0.304
CAATTAGC: 0.124
TGCAGACA: 0.179
AATCTGTA: 0.204
CGTGCTTA: 0.0375
ACCTCTTA: 0.0718
ATCCGATA: 0.153
CTACTCTA: 0.125
AGTGATTC: 0.0391
ATACCCAA: 0.0616
GGTGTGTA: 0.0285
ATGGGAAT: 0.0704
